Measurements gathered from unrelated publications.
Compare with care: the assays were run in different laboratories. Several values in a cell are separate wells, animals, samples, runs or records.
RPS6KA2: Ribosomal protein S6 kinase alpha-2 (RPS6KA2, Homo sapiens, UniProt Q15349)

N[C@H]1CC[C@H](Nc2nccc(-c3cccnc3Oc3ccc(NC(=O)NC4CC4)c4ccccc34)n2)CC1  log2 LFQ intensity (RPS6KA2; kinobead competition pulldown; HEK293/HCT116 lysate mixture; 10 µM, 1 h, 4 °C; lower = stronger competition): 18.5 and 20.7 and 19.4 and 18.8
COc1ccc(NC(=O)Nc2ccc3c(c2)C(=O)N(C(C)CO)CC(C)C(CN(C)Cc2ccc4c(c2)OCO4)O3)cc1 (centres unmarked)  remaining activity (RPS6KA2; kinase activity, KinaseProfiler; 0.03 µM, species human; baseline: control): 97%
C=CC(=O)Nc1cccc(-c2cnc3[nH]cc(C(=O)NC(C)(C)C)c3n2)c1  inhibition (RPS6KA2; kinase activity, inhibitor, kinase panel; 0.1 µM): 40% and 38%
NC(=O)[C@@H](O)C[C@H]1CCc2sc3ncnc(O[C@H]4CC[C@H](N5CCOCC5)CC4)c3c21  inhibition (RPS6KA2; radioisotope kinase; 10 µM): 38%
CN1CCN(Cc2ccc(-c3ccc(CO[C@H]4CCC[C@@H]4NC(=O)c4cc(-c5cnn(C)c5)cnc4N)cc3)cc2)CC1  inhibition (RPS6KA2; enzyme activity, inhibitor; 0.1 µM): 21%
O=C(Cc1ccc(OCc2ccccc2)cc1)NC1(C(=O)O)CCN(C(=O)c2ccc(-c3cccc(Cl)c3)cc2)CC1  activity vs control (RPS6KA2; enzyme activity, inhibitor; 10 µM): 105%
Cc1cccc(O[C@H]2CCC[C@@H](C(C)CNCc3ccncc3)C2)c1 (relative stereo)  inhibition (RPS6KA2; kinome profiling; 1 µM): 1%
CN1CC[C@@H](COc2cnc(C#N)cc2-c2ccn3nc(NC(=O)C4CC4)cc3c2)C1  inhibition (RPS6KA2; inhibitor, KinaseProfiler panel; 1 µM): 35%
C=CC(=O)N1Cc2nc(-c3cc(-c4cc(Cl)cnc4Cl)c(F)cc3F)n(-c3ccncn3)c2C1  inhibition (RPS6KA2; cell-free assay, inhibitor; 1 µM): 9.6%
Nc1ncc(-c2cc(-c3cnn(CC(F)(F)F)c3)ncc2F)nc1C(=O)NC1CNCC(F)C1 (centres unmarked)  remaining activity (RPS6KA2; enzyme activity; 1 µM; baseline: DMSO control): 42%
CS(=O)(=O)Nc1cccc(-c2csc3cnc(Nc4ccc(N5CCN(CCCCCOc6cccc7c6C(=O)N(C6CCC(=O)NC6=O)C7=O)CC5)cc4)nc23)c1 (centres unmarked)  inhibition (Ribosomal protein S6 kinase alpha-2, kinase domain 1 (RPS6KA2, Homo sapiens, UniProt Q15349); probe labelling, inhibitor, KiNativ chemoproteomics; MOLT-4; 1 µM): 2.06%
CCn1cc(C(=O)O)c(=O)c2c(N)c(F)c(NC3CCCCC3)cc21  inhibition (RPS6KA2; kinase activity; 0.1 µM, added: ATP at Km): -7%
O=c1c(-c2ccc(Cl)c(CN3CCOCC3)c2)coc2cc(O)ccc12  remaining activity (RPS6KA2; enzyme activity, inhibitor; 1 µM): 95%
COCC12C(=O)NC3C4(C(OC)CC1O)C1CC5(O)C(OC)C(O)C(OC(C)=O)(C1C5OC(=O)c1ccccc1)C3(O)C(OC)C24 (centres unmarked)  remaining activity (RPS6KA2; kinase activity, inhibitor, ProQinase kinase profiling; 25 µM; baseline: control): 106% and 111%
NC(=O)C[C@H]1CCc2sc3ncnc(O[C@H]4CC[C@H](N5CCOCC5)CC4)c3c21  inhibition (RPS6KA2; radioisotope kinase; 10 µM): 25%
COc1ccc(C(=O)/C=C/c2ccccc2-c2c[nH]c3ccc(C#N)cc23)c(O)c1  inhibition (RPS6KA2; inhibitor; 20 µM): 7%
CNC(=O)C[C@H](Cc1ccc(C#N)cc1)NC(=O)c1cc(-c2ccc(CN[C@H](C)c3ccc(C)cc3)o2)ccc1Cl  activity vs control (RPS6KA2; enzyme activity, inhibitor; 1 µM): 104%
COc1c(OCCCN2CCOCC2)ccc2c1N=C(NC(=O)c1cnc(N)nc1)N1CCN=C21  remaining activity (RPS6KA2; kinase activity, inhibitor; 1 µM; baseline: untreated control): 102%
O=C=[N][Ru-4]123([n]4c5ccc(O)cc5c5c6c(c7cc(F)c[n+]1c7c54)C(=O)NC6=O)[S+]1CC[S+]2CC[S+]3CC1 (centres unmarked)  remaining activity (RPS6KA2; enzyme activity; 100 nM, human enzyme, added: 10 µM ATP; baseline: untreated): 31%
Cc1nc2c(F)cc(-c3nc(Nc4ccc(CNC(=O)CCCCCCC(=O)NO)cc4)ncc3F)cc2n1C(C)C  inhibition (RPS6KA2; enzyme activity, inhibitor; 1 µM): 78%

Excerpt of the above:
N[C@H]1CC[C@H](Nc2nccc(-c3cccnc3Oc3ccc(NC(=O)NC4CC4)c4ccccc34)n2)CC1  log2 LFQ intensity (RPS6KA2; kinobead competition pulldown; HEK293/HCT116 lysate mixture; 10 µM, 1 h, 4 °C; lower = stronger competition): 18.5 and 20.7 and 19.4 and 18.8
Cc1cccc(O[C@H]2CCC[C@@H](C(C)CNCc3ccncc3)C2)c1 (relative stereo)  inhibition (RPS6KA2; kinome profiling; 1 µM): 1%
CNC(=O)C[C@H](Cc1ccc(C#N)cc1)NC(=O)c1cc(-c2ccc(CN[C@H](C)c3ccc(C)cc3)o2)ccc1Cl  activity vs control (RPS6KA2; enzyme activity, inhibitor; 1 µM): 104%
